Assay results gathered from unrelated publications.
A part holds a random share of what one study measured. Substitutions count along the parent as printed.

Series 1
Target: Kappa-type opioid receptor (OPRK1, Homo sapiens, UniProt P41145)
UniProt P41145, sequence (whole entry, looked up): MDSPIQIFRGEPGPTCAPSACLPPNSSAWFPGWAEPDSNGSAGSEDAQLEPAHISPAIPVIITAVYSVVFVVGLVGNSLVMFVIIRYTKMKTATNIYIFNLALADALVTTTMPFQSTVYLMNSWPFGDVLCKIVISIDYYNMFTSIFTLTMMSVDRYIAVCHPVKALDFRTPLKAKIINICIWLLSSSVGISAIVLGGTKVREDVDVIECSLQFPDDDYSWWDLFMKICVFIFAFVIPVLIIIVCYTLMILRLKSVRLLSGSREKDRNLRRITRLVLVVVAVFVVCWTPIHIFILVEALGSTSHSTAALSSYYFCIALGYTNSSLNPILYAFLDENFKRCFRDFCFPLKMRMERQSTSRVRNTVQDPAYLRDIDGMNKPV
Read-out: binding
Method: radioligand binding
Concentration: 10 µM
`CCCOc1ccc([C@H]2[C@H](C(=O)O)[C@@H](c3ccc4c(c3)OCO4)CN2CC(=O)Nc2c(CC)cccc2CC)cc1` gave an inhibition of 35.3%.
For `Cc1c(N2CCCC2)nc2ccc(Br)cc2c1C(=O)NC[C@H](CCC(=O)O)c1ccccc1Cl`, the inhibition was 15.4%.
`O[C@]1(C(F)(F)F)CCCC[C@H]1Nc1ccc(F)cc1` has an inhibition of 9.94%.
`O=C(NC[C@@H]1[C@H]2CN(C(=O)OCc3cc(C(F)(F)F)cc(C(F)(F)F)c3)C[C@@H]12)c1ccc2[nH]nnc2c1` gave an inhibition of 27.8%.
With `CC1=C(C#N)[C@@H](c2ccc3[nH]nc(C)c3c2)C(C#N)=C(c2ccc(Cl)cc2)N1` the inhibition was -16%.
The inhibition of `O=C(Nc1cnc(Oc2ccc(F)cc2)nc1)N1CCc2ncccc2[C@@H]1c1ccc(F)cc1` is reported as 56.3%.
`Cc1nc(N2CC[C@@H](O)C2)ncc1-c1cc(C(F)(F)F)cc2[nH]ncc12` gave an inhibition of 7.69%.
With `CN1CCN(C(=O)C(C)(C)c2ccc(C(=O)Nc3cn4cc(-c5ccncc5)ccc4n3)cc2)CC1` the inhibition was -6.32%.
With `Cc1nc(Cc2cccc(C(F)(F)F)c2)sc1-c1ccc(C(N)=O)nc1` the inhibition was 3.47%.
The inhibition of `CNC(=O)c1ccc(Nc2ncc(C(F)(F)F)c(NCc3nccnc3N(C)S(C)(=O)=O)n2)cc1` is reported as 10.8%.
With `COc1cccc(CNC(=O)c2nc3scc(COCc4ccc(C(=O)O)cc4)c3c(=O)[nH]2)c1` the inhibition was 8.18%.
`COc1nc2ccc([C@@](O)(c3ccccc3)C3CCN(C(C)=O)CC3)cc2c(Cl)c1Cc1ccc(-n2cccn2)cc1` gave an inhibition of -6%.
With `C[C@H](NC(=O)c1cnc2n1[C@](C)(Cc1ccc(C#N)cc1)C(=O)N2c1cc(Cl)c(F)c(Cl)c1)C(=O)NC1(c2ccccn2)CC1` the inhibition was 9.67%.
`CC1=C(C#N)C(c2ccc3c(c2)c(NC(=O)c2ccccc2C)nn3C)C(C#N)=C(C)N1` has an inhibition of 21.6%.
With `CNC(=O)c1cc(C(=O)NC2CC2)cn(Cc2ccccc2)c1=O` the inhibition was 39.9%.

Series 2
Target: CCND2, cyclin fold, Cln2 fusion (human)
Method: yeast growth competition, sequencing
Sample: yeast
Notes: weak parent motif
Relative to: not given
Reading: higher = stronger binding
Starting sequence: viral docking peptide; PTARRRLLHDLDT; partner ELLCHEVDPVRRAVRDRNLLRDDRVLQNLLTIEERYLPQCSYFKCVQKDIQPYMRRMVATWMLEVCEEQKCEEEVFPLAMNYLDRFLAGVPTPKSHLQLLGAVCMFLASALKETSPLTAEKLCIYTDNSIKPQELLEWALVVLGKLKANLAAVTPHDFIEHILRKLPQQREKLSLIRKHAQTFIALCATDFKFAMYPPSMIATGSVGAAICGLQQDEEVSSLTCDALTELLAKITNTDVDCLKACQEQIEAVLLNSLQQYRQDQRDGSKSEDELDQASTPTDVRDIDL
For `R5K H9F`, “normalised enrichment score” read 0.727.
For `H9F`, “normalised enrichment score” read 1.74.
For `D10A`, “normalised enrichment score” read -0.174.
For `L8F`, “normalised enrichment score” read 0.3.
For `D12A`, “normalised enrichment score” read -0.345.

Series 3
Target: UDP-N-acetylglucosamine--peptide N-acetylglucosaminyltransferase 110 kDa subunit (OGT, Homo sapiens, UniProt O15294)
Read-out: binding
Method: phage display NGS
Form: peptide
Relative to: input library
Residues (O15294 1-1046): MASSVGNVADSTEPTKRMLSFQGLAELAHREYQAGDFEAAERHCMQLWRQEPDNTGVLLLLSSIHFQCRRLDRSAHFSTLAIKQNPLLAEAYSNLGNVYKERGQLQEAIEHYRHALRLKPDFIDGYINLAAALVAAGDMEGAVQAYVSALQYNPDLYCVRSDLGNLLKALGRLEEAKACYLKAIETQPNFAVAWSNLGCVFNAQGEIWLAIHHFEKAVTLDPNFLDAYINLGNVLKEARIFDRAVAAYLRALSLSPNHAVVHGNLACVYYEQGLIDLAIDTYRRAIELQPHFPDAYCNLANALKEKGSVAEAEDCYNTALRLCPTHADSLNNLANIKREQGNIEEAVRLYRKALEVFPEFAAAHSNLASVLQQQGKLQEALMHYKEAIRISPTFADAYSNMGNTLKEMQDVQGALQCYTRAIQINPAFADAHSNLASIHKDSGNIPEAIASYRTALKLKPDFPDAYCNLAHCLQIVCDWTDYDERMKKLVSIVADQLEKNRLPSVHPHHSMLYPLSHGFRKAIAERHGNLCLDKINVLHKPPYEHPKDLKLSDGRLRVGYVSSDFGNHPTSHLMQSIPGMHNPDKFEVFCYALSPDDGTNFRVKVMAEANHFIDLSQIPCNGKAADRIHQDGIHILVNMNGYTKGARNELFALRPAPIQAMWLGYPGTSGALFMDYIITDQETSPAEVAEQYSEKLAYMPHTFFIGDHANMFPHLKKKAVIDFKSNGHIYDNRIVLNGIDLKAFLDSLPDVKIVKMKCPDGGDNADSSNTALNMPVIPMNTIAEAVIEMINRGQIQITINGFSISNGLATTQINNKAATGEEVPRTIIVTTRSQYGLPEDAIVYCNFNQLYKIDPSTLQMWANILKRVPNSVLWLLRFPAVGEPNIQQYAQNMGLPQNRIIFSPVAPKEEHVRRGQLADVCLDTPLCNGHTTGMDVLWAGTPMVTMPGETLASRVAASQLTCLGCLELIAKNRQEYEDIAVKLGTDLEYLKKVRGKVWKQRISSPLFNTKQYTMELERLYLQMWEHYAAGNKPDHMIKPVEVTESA
`HWQRHHMDAPFQMPY` — result for “minimum log2 enrichment ratio”: 2.33.
`QPTKHFRSHHTYTAN`: “minimum log2 enrichment ratio” 2.91.
For `SIHTWSVGKHFRHHW`, “minimum log2 enrichment ratio” read 2.78.
`TSQLQPFYLIQYSHR` — result for “minimum log2 enrichment ratio”: 1.88.
Under “minimum log2 enrichment ratio”, `FIPYSPFYQIESSRY` is recorded as 0.966.
`NTTHQVHRFKWHQHT`: “minimum log2 enrichment ratio” 2.03.
Under “minimum log2 enrichment ratio”, `QLAAYSPVYQIPILY` is recorded as 2.75.
Under “minimum log2 enrichment ratio”, `EWGHGAYMHHNHEGP` is recorded as 2.08.

Series 4
Target: tungstate, free oxyanion
Method: microfluidic competitive inhibition
Sample: in vitro, cell-free expressed
Concentration: not given
Notes: derived from inhibition constants, unchanged parent 2230 nM
Reading: lower = stronger binding
Starting sequence: PafA, mature enzyme, eGFP fusion (Elizabethkingia meningoseptica, UniProt Q9KJX5); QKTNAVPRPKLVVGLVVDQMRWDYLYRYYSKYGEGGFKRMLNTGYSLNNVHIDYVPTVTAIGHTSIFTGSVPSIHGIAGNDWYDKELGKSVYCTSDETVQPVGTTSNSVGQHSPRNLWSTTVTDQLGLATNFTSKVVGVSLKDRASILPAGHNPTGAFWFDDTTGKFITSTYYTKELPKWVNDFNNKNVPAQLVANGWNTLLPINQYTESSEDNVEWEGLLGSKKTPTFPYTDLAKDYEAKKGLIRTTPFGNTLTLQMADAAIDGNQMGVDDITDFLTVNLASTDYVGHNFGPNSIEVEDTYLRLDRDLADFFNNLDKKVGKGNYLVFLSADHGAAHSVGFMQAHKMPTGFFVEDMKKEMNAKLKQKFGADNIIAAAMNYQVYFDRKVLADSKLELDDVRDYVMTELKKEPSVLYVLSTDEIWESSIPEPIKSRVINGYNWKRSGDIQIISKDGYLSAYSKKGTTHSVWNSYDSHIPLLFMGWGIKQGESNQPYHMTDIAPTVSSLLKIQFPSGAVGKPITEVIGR
`N186G` — result for “oxyanion analog dissociation constant”: 1.99 µM.
`D81V`: “oxyanion analog dissociation constant” 3.14 µM.
`Y28V` — result for “oxyanion analog dissociation constant”: 2.3 µM.
Under “oxyanion analog dissociation constant”, `W180G` is recorded as 1.06 µM.
`H337V`: “oxyanion analog dissociation constant” 4.78 µM.
`Q510G` — result for “oxyanion analog dissociation constant”: 2.47 µM.
`N116G` — result for “oxyanion analog dissociation constant”: 2.13 µM.
`S471G`: “oxyanion analog dissociation constant” 2.14 µM.

Other studies, line by line
For `CCCCCCCCCCCCCCCCCC[S+](CCC)c1ccccc1C(=O)OCC` (stereo not shown), the inhibition was 6.5% (chymotrypsin; enzyme activity, inhibitor; 10 µM, with DTT).

Some of these lines once more (series 4):
Under “oxyanion analog dissociation constant”, `W180G` is recorded as 1.06 µM.
`H337V`: “oxyanion analog dissociation constant” 4.78 µM.
`Q510G` — result for “oxyanion analog dissociation constant”: 2.47 µM.
`N116G` — result for “oxyanion analog dissociation constant”: 2.13 µM.
